Measurements collected from several papers.
Each numbered part is a random draw from the data of one study; scales do not carry over between parts.
Sequence of UniProt Q9P286 (whole entry, looked up): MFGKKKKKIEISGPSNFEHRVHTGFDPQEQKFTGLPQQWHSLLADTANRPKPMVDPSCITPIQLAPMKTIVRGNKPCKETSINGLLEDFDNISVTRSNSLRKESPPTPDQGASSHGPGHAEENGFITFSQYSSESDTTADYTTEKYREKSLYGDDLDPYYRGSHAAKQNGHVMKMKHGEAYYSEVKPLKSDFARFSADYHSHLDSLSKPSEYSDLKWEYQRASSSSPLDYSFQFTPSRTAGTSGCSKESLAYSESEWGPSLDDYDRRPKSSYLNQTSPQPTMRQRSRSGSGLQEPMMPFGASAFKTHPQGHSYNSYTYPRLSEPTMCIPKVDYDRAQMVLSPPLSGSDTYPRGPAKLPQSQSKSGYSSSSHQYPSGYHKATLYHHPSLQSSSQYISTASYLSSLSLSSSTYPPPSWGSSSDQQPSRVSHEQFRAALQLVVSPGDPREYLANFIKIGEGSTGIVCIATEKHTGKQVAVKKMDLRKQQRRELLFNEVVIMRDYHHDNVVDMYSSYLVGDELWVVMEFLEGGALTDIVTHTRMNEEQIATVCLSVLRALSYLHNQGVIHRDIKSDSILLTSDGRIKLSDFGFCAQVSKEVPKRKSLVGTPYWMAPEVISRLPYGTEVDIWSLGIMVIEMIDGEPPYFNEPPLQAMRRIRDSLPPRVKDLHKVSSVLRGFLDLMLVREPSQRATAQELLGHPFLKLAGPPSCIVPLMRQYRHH
Sequence of UniProt P07947 (whole entry, looked up): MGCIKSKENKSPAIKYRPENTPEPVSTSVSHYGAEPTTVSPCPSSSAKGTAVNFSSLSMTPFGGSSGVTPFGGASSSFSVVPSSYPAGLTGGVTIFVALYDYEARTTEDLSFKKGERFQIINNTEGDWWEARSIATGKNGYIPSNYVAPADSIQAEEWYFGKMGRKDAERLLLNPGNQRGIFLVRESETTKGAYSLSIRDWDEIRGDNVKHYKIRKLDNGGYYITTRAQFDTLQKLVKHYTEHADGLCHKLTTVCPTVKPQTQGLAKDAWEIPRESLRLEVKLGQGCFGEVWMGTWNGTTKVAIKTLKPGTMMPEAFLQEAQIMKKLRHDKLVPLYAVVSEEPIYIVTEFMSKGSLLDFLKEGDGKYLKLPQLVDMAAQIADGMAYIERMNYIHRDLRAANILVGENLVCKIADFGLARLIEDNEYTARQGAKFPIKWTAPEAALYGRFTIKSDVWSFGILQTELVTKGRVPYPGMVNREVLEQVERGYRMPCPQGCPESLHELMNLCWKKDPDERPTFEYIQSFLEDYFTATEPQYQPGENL
Sequence of UniProt Q9UBS0 (whole entry, looked up): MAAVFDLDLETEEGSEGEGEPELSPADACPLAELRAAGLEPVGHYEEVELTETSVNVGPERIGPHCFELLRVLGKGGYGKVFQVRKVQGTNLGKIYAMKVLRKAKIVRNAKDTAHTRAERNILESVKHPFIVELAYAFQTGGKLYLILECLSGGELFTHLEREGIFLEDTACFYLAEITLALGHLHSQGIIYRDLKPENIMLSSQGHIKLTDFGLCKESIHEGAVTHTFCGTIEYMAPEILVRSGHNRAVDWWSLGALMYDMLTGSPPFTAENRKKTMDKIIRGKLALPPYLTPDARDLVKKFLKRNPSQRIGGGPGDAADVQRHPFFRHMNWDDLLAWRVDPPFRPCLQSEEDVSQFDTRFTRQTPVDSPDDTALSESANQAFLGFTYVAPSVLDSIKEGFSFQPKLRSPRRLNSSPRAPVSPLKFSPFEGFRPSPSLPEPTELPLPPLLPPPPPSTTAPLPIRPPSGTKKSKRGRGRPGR
Sequence of UniProt P29323 (whole entry, looked up): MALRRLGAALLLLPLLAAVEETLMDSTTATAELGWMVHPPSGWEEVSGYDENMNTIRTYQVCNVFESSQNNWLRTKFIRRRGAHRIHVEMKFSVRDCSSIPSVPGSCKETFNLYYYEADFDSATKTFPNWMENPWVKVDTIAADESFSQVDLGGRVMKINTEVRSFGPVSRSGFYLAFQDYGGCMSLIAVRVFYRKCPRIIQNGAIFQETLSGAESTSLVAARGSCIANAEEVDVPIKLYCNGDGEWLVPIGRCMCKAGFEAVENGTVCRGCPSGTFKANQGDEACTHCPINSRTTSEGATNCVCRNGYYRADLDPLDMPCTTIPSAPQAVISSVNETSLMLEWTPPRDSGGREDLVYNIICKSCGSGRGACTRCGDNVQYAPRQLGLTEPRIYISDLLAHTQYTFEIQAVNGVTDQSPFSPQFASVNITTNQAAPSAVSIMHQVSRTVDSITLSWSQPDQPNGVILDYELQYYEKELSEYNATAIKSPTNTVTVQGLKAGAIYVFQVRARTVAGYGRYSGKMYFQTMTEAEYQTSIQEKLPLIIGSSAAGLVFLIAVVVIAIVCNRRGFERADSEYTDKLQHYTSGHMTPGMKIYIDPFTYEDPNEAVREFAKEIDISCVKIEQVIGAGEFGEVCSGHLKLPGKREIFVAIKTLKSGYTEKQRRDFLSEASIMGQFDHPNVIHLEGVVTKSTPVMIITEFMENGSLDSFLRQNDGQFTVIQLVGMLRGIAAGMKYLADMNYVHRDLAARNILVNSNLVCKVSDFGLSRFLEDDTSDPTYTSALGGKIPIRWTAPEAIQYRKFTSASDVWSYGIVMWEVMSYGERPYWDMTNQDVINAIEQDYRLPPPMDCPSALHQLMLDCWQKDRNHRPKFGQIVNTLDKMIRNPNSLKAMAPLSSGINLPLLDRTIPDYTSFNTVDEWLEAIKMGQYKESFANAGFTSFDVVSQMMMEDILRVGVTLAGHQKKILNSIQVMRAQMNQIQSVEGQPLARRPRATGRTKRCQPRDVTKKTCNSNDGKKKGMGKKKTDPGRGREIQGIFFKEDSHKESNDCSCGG
Sequence of UniProt Q13237 (whole entry, looked up): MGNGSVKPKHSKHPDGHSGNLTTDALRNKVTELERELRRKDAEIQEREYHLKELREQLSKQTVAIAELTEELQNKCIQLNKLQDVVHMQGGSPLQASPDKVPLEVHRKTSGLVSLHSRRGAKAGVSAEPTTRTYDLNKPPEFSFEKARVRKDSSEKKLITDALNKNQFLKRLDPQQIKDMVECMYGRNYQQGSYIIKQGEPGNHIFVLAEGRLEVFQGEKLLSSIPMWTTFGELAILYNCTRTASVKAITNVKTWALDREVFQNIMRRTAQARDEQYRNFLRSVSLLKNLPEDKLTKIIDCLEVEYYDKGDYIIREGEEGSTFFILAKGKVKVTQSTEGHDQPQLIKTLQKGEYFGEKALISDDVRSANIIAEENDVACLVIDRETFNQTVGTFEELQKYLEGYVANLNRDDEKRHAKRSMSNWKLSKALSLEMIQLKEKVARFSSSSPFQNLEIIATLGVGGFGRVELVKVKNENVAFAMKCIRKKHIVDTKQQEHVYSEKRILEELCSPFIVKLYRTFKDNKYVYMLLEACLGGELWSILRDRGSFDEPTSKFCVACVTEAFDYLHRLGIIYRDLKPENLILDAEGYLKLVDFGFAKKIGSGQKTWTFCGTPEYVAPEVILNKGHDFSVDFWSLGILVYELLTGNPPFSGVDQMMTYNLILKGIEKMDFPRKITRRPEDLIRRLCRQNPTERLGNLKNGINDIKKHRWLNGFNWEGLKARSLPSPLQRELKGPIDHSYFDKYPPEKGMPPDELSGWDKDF
Sequence of UniProt O96013 (whole entry, looked up): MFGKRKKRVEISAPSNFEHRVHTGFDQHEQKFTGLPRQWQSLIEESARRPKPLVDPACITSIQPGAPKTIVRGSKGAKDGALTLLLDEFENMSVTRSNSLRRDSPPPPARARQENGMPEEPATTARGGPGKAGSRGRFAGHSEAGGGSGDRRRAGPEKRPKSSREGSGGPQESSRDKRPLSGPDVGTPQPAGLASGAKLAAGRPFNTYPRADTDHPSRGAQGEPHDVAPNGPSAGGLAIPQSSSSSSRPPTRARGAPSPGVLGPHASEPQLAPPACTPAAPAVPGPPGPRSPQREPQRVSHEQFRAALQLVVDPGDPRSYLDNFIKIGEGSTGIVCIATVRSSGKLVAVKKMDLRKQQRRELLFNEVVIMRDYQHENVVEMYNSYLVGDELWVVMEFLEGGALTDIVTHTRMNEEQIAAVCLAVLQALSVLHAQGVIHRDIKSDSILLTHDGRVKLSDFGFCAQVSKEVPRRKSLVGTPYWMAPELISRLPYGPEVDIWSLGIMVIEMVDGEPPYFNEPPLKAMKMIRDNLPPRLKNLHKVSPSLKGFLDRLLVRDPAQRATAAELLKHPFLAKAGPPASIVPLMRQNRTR
Sequence of UniProt Q16816 (whole entry, looked up): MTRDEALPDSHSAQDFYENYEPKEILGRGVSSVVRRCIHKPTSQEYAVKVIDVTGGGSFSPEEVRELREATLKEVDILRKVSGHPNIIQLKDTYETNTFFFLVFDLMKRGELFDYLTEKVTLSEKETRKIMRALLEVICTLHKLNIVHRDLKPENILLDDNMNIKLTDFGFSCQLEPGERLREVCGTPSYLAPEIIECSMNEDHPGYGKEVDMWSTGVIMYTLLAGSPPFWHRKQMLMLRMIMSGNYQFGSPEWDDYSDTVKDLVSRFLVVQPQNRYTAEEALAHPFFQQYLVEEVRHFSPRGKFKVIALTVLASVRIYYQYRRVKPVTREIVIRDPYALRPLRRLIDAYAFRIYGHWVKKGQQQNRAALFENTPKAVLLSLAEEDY

Study 1
SMILES: O=C(O)c1ccc2c3c1cccc3c(=O)n1c3ccccc3nc21
Observed: enzyme activity
Mode: inhibitor
Tested at: 0.5 µM
| target | baseline | remaining activity [%] |
| --- | --- | --- |
| Ribosomal protein S6 kinase beta-2 (RPS6KB2, Homo sapiens, UniProt Q9UBS0) | control | 98 |
| Serine/threonine-protein kinase PAK 4 (PAK4, Homo sapiens, UniProt O96013) | control | 114 |
| Tyrosine-protein kinase JAK2 (JAK2, Homo sapiens, UniProt O60674) | control | 86.7 |
| Serine/threonine-protein kinase PAK 5 (PAK5, Homo sapiens, UniProt Q9P286) | control | 98.7 |
| Tyrosine-protein kinase Yes (YES1, Homo sapiens, UniProt P07947) | control | 96.6 |
| Serine/threonine-protein kinase A-Raf (ARAF, Homo sapiens, UniProt P10398) | – | 101 |

Study 2
Cell line: A-375
Tested at: 100 µM
Time: 36 h
| SMILES | viability [%] |
| --- | --- |
| CN[C@@H]1[C@@H](O)[C@@H](O[C@@H]2[C@@H](O)[C@H](O[C@H]3OC(CN)=CC[C@H]3N)[C@@H](N)C[C@H]2N)OC[C@]1(C)O | 110 |
| CC#C[C@]1(O)CC[C@H]2[C@@H]3CCC4=CC(=O)CCC4=C3[C@@H](c3ccc(N(C)C)cc3)C[C@@]21C | 24.8 |
| Cc1nnc(C(C)C)n1[C@@H]1C[C@H]2CC[C@@H](C1)N2CC[C@H](NC(=O)C1CCC(F)(F)CC1)c1ccccc1 | 106 |
| O=c1cc(-c2ccc(O)c(O)c2)oc2cc(O)cc(O)c12 | 24.7 |
| CN(C)CCOC(c1ccc(Cl)cc1)c1ccccn1 (stereo not drawn) | 85.7 |

Study 3
Structure (SMILES): CCCCN(CCCC)C(=O)CN1C[C@@H](c2cc(OC)c3c(c2)OCO3)[C@H](C(=O)O)[C@H]1CC(C)(C)CCC
Observed: cell-free assay
Technique: competition with immobilised ligand
Tested at: 1 µM
| target | remaining binding [%] |
| --- | --- |
| Ephrin type-B receptor 2 (EPHB2, Homo sapiens, UniProt P29323) | 73 |
| Ribosomal protein S6 kinase alpha-6, C-terminal kinase domain (RPS6KA6, Homo sapiens, UniProt Q9UK32) | 79.2 |
| Phosphorylase b kinase gamma catalytic chain, skeletal muscle/heart isoform (PHKG1, Homo sapiens, UniProt Q16816) | 97.5 |
| cGMP-dependent protein kinase 2 (PRKG2, Homo sapiens, UniProt Q13237) | 100 |
| Vascular endothelial growth factor receptor 1 (FLT1, Homo sapiens, UniProt P17948) | 100 |

Study 4
Species: mouse
Medium: microsomes or S9
Tested at: 2 µM
Time: 0.5 h
| SMILES | remaining compound [%] |
| --- | --- |
| COc1ccc([C@@H](C)C(=O)c2ccc(O)cc2O)cc1 | 31.1 |
| CN(C)CCCC(C#N)c1cccc2ccccc12 (stereo not drawn) | 6.28 |
| C[C@H](Nc1nc(N)nc2[nH]cnc(=O)c12)c1cc2cccc(Cl)c2c(=O)n1-c1ccccc1 | 69.4 |
| COCCNC(=O)C(=O)N1CCC(OC(=O)c2ccc(Oc3ccccc3)cc2)C(N2CCN(c3ccc(F)cc3)CC2)C1 (stereo not drawn) | 4.99 |
| CCOc1cc(C(=O)OCc2cc(=O)n3oc(C)cc3n2)cc(OCC)c1OCC | 0.188 |

Excerpt of the above (study 3):
| target | remaining binding [%] |
| --- | --- |
| Ephrin type-B receptor 2 (EPHB2, Homo sapiens, UniProt P29323) | 73 |
